# Experimental data gathered from unrelated publications.
# A part holds a random share of what one study measured. Changes are numbered by the printed parent chain.

# Series 1
# Target: Fragile X messenger ribonucleoprotein 1, C-terminal low-complexity region (Fmr1, Mus musculus, UniProt P35922)
# Method: RNA Bind-n-Seq
# Form: RNA
# Matrix: in vitro
# Concentration: 200 nM
# Setting: whole 134-nt RNA, ends assumed
# Added: 150 mM LiCl
# Relative to: input library
# Direction: higher = stronger binding
# All molecules: 7-deaza-guanosine replaces G
Strand,log2 enrichment
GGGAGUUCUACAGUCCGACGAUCUAACUUUAGAGGAGGAUCUGAUGGAUAUGGCAGUGGACGUGGAUUUGGGGAUGGCUAUAAUGGGUAUGGAGGAAGACCUGGAGGUGGCAAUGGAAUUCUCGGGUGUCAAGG,-0.209
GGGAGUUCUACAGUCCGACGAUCGUCCUGUGCUACACAUCGUAUGUACCGAAUCGGGGUUUUUGGUUUUUGGGUUUUUGGGAAAGUAUUAUGUUACGCCGUUCGGAUCUGCACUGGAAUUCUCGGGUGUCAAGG,-1.22
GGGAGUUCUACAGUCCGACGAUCAACUAAUACUCUUAAAUGGUCUUUCAGUAUAGUGGUUCUUACGUAGUUUAACAUAGCUAUAAAUUGAGUUUAACAAUUUAUAAACUCAAGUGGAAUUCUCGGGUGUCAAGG,0.473
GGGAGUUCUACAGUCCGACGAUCUCCUGUGCUACACAUCGUAUGUACCGAAUCGGCCCCCCGGGCCCCCCGGCCCCCCGGGGAAAGUAUUAUGUUACGCCGUUCGGAUCUGCAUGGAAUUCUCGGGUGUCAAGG,-0.197
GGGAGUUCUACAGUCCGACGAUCCCUGUGCUACACAUCGUAUGUACCGAAUCGGCCCCCCCGGGGCCCCCCCGGCCCCCCCGGGAAAGUAUUAUGUUACGCCGUUCGGAUCUGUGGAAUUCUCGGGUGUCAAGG,-0.555
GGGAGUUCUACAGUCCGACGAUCAGUCCUGUGCUACACAUCGUAUGUACCGAAUCGGUUUUUGGUUUUUGGGUUUUUGGGAAAGUAUUAUGUUACGCCGUUCGGAUCUGCACUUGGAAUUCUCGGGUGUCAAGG,-1.88
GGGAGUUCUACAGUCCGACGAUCCUCAAGUCCUGUGCUACACAUCGUAUGUACCGAAUCGGCCGGGCCGGGCCGGGGAAAGUAUUAUGUUACGCCGUUCGGAUCUGCACUUCCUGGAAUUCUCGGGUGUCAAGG,0.4
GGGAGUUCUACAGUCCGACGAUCUGGCCCUGGUGGCAUGCGGGGAGGAAGAGGUGGCCUCAUGGAACGUGGUGGUCCCGGUGGAAUGUUCAGAGGUGGCCGUGGUGGAGACAGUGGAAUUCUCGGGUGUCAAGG,-0.267
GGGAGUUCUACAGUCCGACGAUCUUGUUUUUUUUUUGUUCUUUUUUUCCAUGUCACUAAAGGCCCUCGGGACCAAGGAUCACGUCAUGACUCCGGUGAGUUCACACGUGGUGGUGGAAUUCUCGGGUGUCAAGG,1.57
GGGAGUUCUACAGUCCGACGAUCCAAGUCCUGUGCUACACAUCGUAUGUACCGAAUCGGAGGUUUUUUUGGUUUUUGGAAAGUAUUAUGUUACGCCGUUCGGAUCUGCACUUCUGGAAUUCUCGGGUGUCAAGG,-1.69
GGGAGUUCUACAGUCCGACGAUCAGUCCUGUGCUACACAUCGUAUGUACCGAAUCGGGAAAAGGGGAAAAGGGGAAAAGGGAAAGUAUUAUGUUACGCCGUUCGGAUCUGCACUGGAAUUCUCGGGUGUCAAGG,-0.105

# Series 2
# Target: CCNA2, cyclin fold, Cln2 fusion (human)
# Method: yeast growth competition, sequencing
# Matrix: yeast
# Setting: strong parent motif
# Relative to: not given
# Direction: higher = stronger binding
# Starting sequence: DBF4B docking peptide (human); LGYLYLLLTQSLW
Change,normalised enrichment score
LAYLYLLLTQSLW [G2A],0.969
LGYLYLLLTQALW [S11A],1.38
LGYLYALLTQSLW [L6A],1.09
LGYLYLLLTQSAW [L12A],1.21
AGYLYLLLTQSLW [L1A],1.97
LGYLYLLATQSLW [L8A],1.8
LGYLYLALTQSLW [L7A],1.73

# Series 3
# Target: Prothrombin, mature alpha-thrombin (F2, Homo sapiens, UniProt P00734)
# Method: aptamer microarray, sandwich
# Form: DNA with 2'F-ANA
# Matrix: in vitro
# Concentration: 200 nM
# Setting: whole 15-mer aptamer, many near background
# Added: Cy3 exosite-II aptamer, 400 nM
# Direction: higher = stronger binding
# Strand: GGTTGGTGTGGTTGG
Modification,mean fluorescence intensity
2'F-ANA at 3 4 5 8 9 11 13 14 15,51 a.u.
2'F-ANA at 2 3 4 5 6 7 10 11 13 15,48.6 a.u.
2'F-ANA at 1 3 5 6 7 11 14,47.5 a.u.
2'F-ANA at 3 5 8 10 11 13 14 15,55.1 a.u.
2'F-ANA at 6 9 11 12 14,257 a.u.
2'F-ANA at 4 5 7 11,57.4 a.u.
2'F-ANA at 2 4 7 11 13 15,237 a.u.
2'F-ANA at 3 4 5 6 7 8 10 11 13 15,50 a.u.
2'F-ANA at 6 7 9,439 a.u.
2'F-ANA at 1 2 3 5 7 8 12,153 a.u.
2'F-ANA at 3 4 7 9 12 14,344 a.u.
2'F-ANA at 1 3 5 7 8 9 10 11 12 15,53.8 a.u.
2'F-ANA at 3 4 5 10 13 14,47.8 a.u.
2'F-ANA at 1 2 3 4 5 8 9 11 13 14 15,50.7 a.u.
2'F-ANA at 1 3 5 7 10 14 15,54.7 a.u.
2'F-ANA at 1 2 3 6 12 13,336 a.u.
2'F-ANA at 1 3 4 5 8 10 13,56.1 a.u.

# Series 4
# Target: Histone acetyltransferase KAT6A, both winged helices, GST fusion (KAT6A, Homo sapiens, UniProt Q92794, residues 1-181)
# Method: protein binding microarray
# Form: double-stranded DNA, one strand shown
# Matrix: in vitro
# Concentration: not given
# Setting: 8-mer, flanks averaged, mean of 2 arrays, mostly near background
# Relative to: not given
# Direction: higher = stronger binding
# Residues (chain): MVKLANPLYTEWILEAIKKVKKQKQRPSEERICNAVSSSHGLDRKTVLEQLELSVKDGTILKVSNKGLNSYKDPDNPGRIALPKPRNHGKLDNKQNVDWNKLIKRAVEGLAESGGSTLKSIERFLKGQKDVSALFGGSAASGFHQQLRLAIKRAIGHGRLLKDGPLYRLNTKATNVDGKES
Strand,E-score
CACTCGCA,0.0657
CATAACCC,-0.0917
TAAACATA,-0.0156
CCCTTTTC,-0.281
AAACATTG,-0.0343
AAGCCTTC,-0.0905
ATATGCTA,-0.129
CATGAGAA,-0.0425
GTACCGCA,0.243
ACCTCCAC,-0.106
AGCAATTA,0.00762
ACCCGCGA,0.204
AAAGGACG,0.0224
GTCCGCAC,0.195
CCTTGGCA,-0.223
ACATTCAC,-0.105
AGTTATAC,0.00887
GTCGGCGA,0.308
GCGGACTA,0.198
ATTTAGCA,-0.154
CGATGGCA,-0.0136

# Series 5
# Target: RNA binding protein fox-1 homolog 2, RRM domain, GST-SBP tag (RBFOX2, Homo sapiens, UniProt O43251-10, residues 100-194)
# Method: RNA Bind-n-Seq
# Form: RNA
# Matrix: in vitro
# Concentration: 365 nM
# Setting: natural RNA segment, single round, ends assumed
# Relative to: no-protein control
# Direction: higher = stronger binding
# Construct (chain): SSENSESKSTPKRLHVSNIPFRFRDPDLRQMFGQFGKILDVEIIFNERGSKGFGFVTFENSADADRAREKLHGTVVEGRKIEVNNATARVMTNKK
Strand,RBNS enrichment (R)
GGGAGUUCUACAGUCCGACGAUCGUUAUCCAACGCUUCAUUGUACCAGACAUUGUCCAGAAGUUUCAAAGACCCUUUGCAAACCCUGAACUGGGCUACGGGAAAAUAACACGAAUACUGAUAAGGACACAACUUGGAAUUCUCGGGUGCCAA,0.256
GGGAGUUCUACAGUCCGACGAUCUUCUCUCUUCCCUUGAUCUUCCUUGGCCUGGCCCAUUCUGCUCUUUACAGUGCCAGAUAUUUAUACAUCAUAAACUUAGGAAAUGCCUAAAAGAGCCUAAGCAGGAAAAAUGGAAUUCUCGGGUGCCAA,0.326
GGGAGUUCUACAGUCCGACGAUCUGGUUGUUCUUGGGUUCUUUUGUCUUGUCAGAGCUCUUCUAUAACCUCGCUCUAAUGGCUUAACAGUUGUUCUGGGUGGAAACGUCCCCUCAUUUGAAUGCUCCUCUAAAUGGAAUUCUCGGGUGCCAA,10.3
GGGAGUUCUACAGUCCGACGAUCAGCACUUAUCCCCCACGCCCGCAGCCACGCCCGUGAAAAGCCCUUCAAGUGCCCAGAGUGCGGCAAGCGCUUCGGCCAGAGCUCAGUUCUGGCCAUCCAUGCCCGCACCCUGGAAUUCUCGGGUGCCAA,0.389
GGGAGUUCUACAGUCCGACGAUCUUGAUGCCUUCUGUCUUUUCAUGAUAAUGUGCUAACAAGUUGUGUUAAUAUUUUACUCAGCCAGAGUCUCAUUCAUUUGCUAAGCAUUGGGAACAUUAUGUAUAUUGACCUGGAAUUCUCGGGUGCCAA,0.249
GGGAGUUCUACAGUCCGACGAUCCACAGCAUACUAAAUCCUCUGGAGAGAUGGAAGUGGACUAGUCUUAAUUUUACCUUCACAUUAAUUCAAACCGUGCAAGUAACCACGGGGUCCAUCUUUUACAUCUGGUAUGGAAUUCUCGGGUGCCAA,0.527
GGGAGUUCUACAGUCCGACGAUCAAAACGUUUGAUUAUUUUCUCAGUGUAUUUUUGUAAAAAAUAUAUAAAGGGGGUGUUAAUCGGUGUAAAUCGCUGUUUGGAUUUCCUGAUUUUAUAACAGGGCGGCUGGUUGGAAUUCUCGGGUGCCAA,0.432
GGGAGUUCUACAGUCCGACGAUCUGGCUGUCCACGUGAGGUCAUAGUCACAGCAUGGAGGCCUUGAGAGCCUGGCCAGGUGGCCCUCCACGUGAGGUCAUGGUCACAGCAUGGGGGCCUUGAGUGCCUGGCCAUGGAAUUCUCGGGUGCCAA,3.23
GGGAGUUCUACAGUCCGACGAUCCGAAGGAAGCUUAAAAAUUCUAUAUCCAGAUAAAAGACCACAAUAAAGCAAAAGUCACCUAUACCGUAAUAGAAAUGUUGCUAUCUCUAUACAAGUGCACUUUGAUCUGUUGGAAUUCUCGGGUGCCAA,0.377
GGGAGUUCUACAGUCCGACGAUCUGGACAGCAAAUUUUUGUCUUAAUAAAAUGUUUUUCGUAAUCAUGCAGGUCAAGUGUAGGGUUGUCAGAGAACAUGGCGCUCUUGGGUGCACCUGUUUGUUCUGCUAGGUUGGAAUUCUCGGGUGCCAA,0.367
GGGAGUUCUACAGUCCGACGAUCUGCAGUACGAAUUUAAUACUUAUAAAGGUUUGCAUUAAUGAGGAUUACACAGAAAACCUUUGUUAAGGACUUGUGUAGAUCUGAUAAUUGGCAAAUUUUUAUUUUAAAAGUGGAAUUCUCGGGUGCCAA,0.529
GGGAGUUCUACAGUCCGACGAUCUGCUAUCCAUCAGAACGUCUAUUCCAGCCUUGCCAGCUUAAGAACUUAGAGAAAUUAAGAGGUAUCUUUGAUGUAUCUACCAGUAUUCAAUAGUAACAUUUACCUGUCCAUGGAAUUCUCGGGUGCCAA,0.375

# Series 6
# Target: Max dimerization protein 1, bHLH-zipper, MAX partner unstated (MXD1, Homo sapiens, UniProt Q05195, residues 56-136)
# Method: protein-binding microarray
# Form: double-stranded DNA, one strand shown
# Matrix: in vitro
# Concentration: not given
# Setting: k-mer, scored over probes, only values ≥0.25
# Direction: higher = stronger binding
# Residues (chain): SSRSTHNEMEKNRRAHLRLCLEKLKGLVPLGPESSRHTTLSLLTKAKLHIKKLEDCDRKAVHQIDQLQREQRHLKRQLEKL
Strand,E-score
TGCATGCA,0.341
ACCATGCG,0.465
GCGGGGCA,0.306
GGGCATGA,0.28
ATGCACAC,0.329
CGTGCTGC,0.284
CGTGTGTA,0.413
ATGTGCTC,0.325
ATGTGCAG,0.267
CATATGGA,0.294
CCACGCAC,0.34
ACATGTTA,0.275
CACGGGGC,0.321
CATGCTGG,0.419
CCCCGCCC,0.357
CGTGTGAA,0.299
CCCCACAA,0.257
AGGGCGTG,0.332
ACATGGTA,0.326
CCACGGGG,0.35
CATGATTC,0.254
CATGAGTA,0.271
CATGCGCA,0.361
CGTGTTTA,0.324

# Other studies, line by line
Substance,target,test,test system,setting,how to read,endpoint,result
"PhoQ, residues 284 288 289 292 302 303 ASASEQ","PhoP, residues 12 14 15 18 19 TPLRH (Escherichia coli, UniProt P23836)","Sort-seq, item: YFP reporter",E. coli,"PhoQ-PhoP variant library, added: 10 µM Mg2+","relative to: high Mg2+ state, higher = stronger signaling",fold induction,1.03

# For quick reference, copied from above (series 3):
Modification,mean fluorescence intensity
2'F-ANA at 3 4 5 8 9 11 13 14 15,51 a.u.
2'F-ANA at 2 3 4 5 6 7 10 11 13 15,48.6 a.u.
2'F-ANA at 1 3 5 6 7 11 14,47.5 a.u.
2'F-ANA at 3 5 8 10 11 13 14 15,55.1 a.u.
2'F-ANA at 6 9 11 12 14,257 a.u.
2'F-ANA at 4 5 7 11,57.4 a.u.
2'F-ANA at 2 4 7 11 13 15,237 a.u.
2'F-ANA at 3 4 5 6 7 8 10 11 13 15,50 a.u.
2'F-ANA at 6 7 9,439 a.u.
2'F-ANA at 1 2 3 5 7 8 12,153 a.u.
2'F-ANA at 3 4 7 9 12 14,344 a.u.
